Published values collected from several papers.
Protocols differ between the studies behind these lines.
Technique: steady-state kinetics
B1: TBM M536C (Drosophila melanogaster, UniProt Q86B61); chain TFMPVMLLLLMATLLTRPLSAFSNRLSDTKLHEIYLDDKEIKLSWMVDWYKQEVLFHLQNAFNEQHRWFYLGFSKRGGLADADICFFENQNGFFNAVTDTYTSPDGQWVRRDYQQDCEVFKMDEFTLAFRRKFDTCDPLDLRLHEGTMYVVWARGETELALEDHQFALPNVTAPHEAGVKMLQLLRADKILIPETELDHMEITLQEAPIPSQETTYWCHVQRLEGNLRRRHHIVQFEPLIRTPGIVHHMEVFHCEAGEHEEIPLYNGDCEQLPPRAKICSKVMVLWAMGAGTFTYPPEAGLPIGGPGFNPYVRLEVHFNNPEKQSGLVDNSGFRIKMSKTLRQYDAAVMELGLEYTDKMAIPPGQTAFPLSGYCVADCTRAALPATGIIIFGSQLHTHLRGVRVLTRHFRGEQELREVNRDDYYSNHFQEMRTLHYKPRVLPGDALVTTCYYNTKDDKTAALGGFSISDECCVNYIHYYPATKLEVCKSSVSEETLENYFIYMKRTEHQHGVHLNGARSSNYRSIEWTQPRIDQLYTMYMQEPLSMQCNRSDGTRFEGRSSWEGVAATPVQIRIPIHRKLCPNYNPLWLKPLEKGDCDLLGECIY
B2: lpxA (Escherichia coli, UniProt P0A722); chain MIDKSAFVHPTAIVEEGASIGANAHIGPFCIVGPHVEIGEGTVLKSHVVVNGHTKIGRDNEIYQFASIGEVNQDLKYAGEPTRVEIGDRNRIRESVTIHRGTVQGGGLTKVGSDNLLMINAHIAHDCTVGNRCILANNATLAGHVSVDDFAIIGGMTAVHQFCIIGAHVMVGGCSGVAQDVPPYVIAQGNHATPFGVNIEGLKRRGFSREAITAIRNAYKLIYRSGKTLDEVKPEIAELAETYPEVKAFTDFFARSTRGLIR
B3: enzyme (Geobacillus kaustophilus, UniProt Q5L3Y1); chain MKIGVLGLQGAVREHVRAIEACGAEAVIVKKPEQLEGLDGLVLPGGESTTMRRLIDRYGLMEPLKQFAAAGKPMFGTCAGLILLAKRIVGYDEPHLGLMDITVERNSFGRQRESFEAELSIKGVGDGFVGVFIRAPHIVEAGDGVDVLATYNDRIVAARQGQFLGCSFHPELTDDHRLMQYFLNMVKEAKMASSLK
B4: rebH (Lentzea aerocolonigenes, UniProt Q8KHZ8); chain MSGKIDKILIVGGGTAGWMAASYLGKALQGTADITLLQAPDIPTLGVGEATIPNLQTAFFDFLGIPEDEWMRECNASYKVAIKFINWRTAGEGTSEARELDGGPDHFYHSFGLLKYHEQIPLSHYWFDRSYRGKTVEPFDYACYKEPVILDANRSPRRLDGSKVTNYAWHFDAHLVADFLRRFATEKLGVRHVEDRVEHVQRDANGNIESVRTATGRVFDADLFVDCSGFRGLLINKAMEEPFLDMSDHLLNDSAVATQVPHDDDANGVEPFTSAIAMKSGWTWKIPMLGRFGTGYVYSSRFATEDEAVREFCEMWHLDPETQPLNRIRFRVGRNRRAWVGNCVSIGTSSCFVEPLESTGIYFVYAALYQLVKHFPDKSLNPVLTARFNREIETMFDDTRDFIQAHFYFSPRTDTPFWRANKELRLADGMQEKIDMYRAGMAINAPASDDAQLYYGNFEEEFRNFWNNSNYYCVLAGLGLVPDAPSPRLAHMPQATESVDEVFGAVKDRQRNLLETLPSLHEFLRQQHGR
B5: iodotyrosine deiodinase (Haliscomenobacter hydrossis, UniProt F4KU78); chain MKQKPAFIPYAGAQFEPEEMLSKSAEYYQFMDHRRTVREFSNRAIPLEVIENIVMTASTAPSGAHKQPWTFVVVSDPQIKAKIRQAAEKEEFESYNGRMSNEWLEDLQPFGTDWHKPFLEIAPYLIVVFRKAYDVLPDGTQRKNYYVQESVGIACGFLLAAIHQAGLVALTHTPSPMNFLQKILQRPENERPFLLVPVGYPAEGAMVPDLQRKDKAAVMVVY
B6: Mj-MAT W387F/Y49W (Methanocaldococcus jannaschii, UniProt Q58605); chain MRNIIVKKLDVEPIEERPTEIVERKGLGHPDSICDGIAESVSRALCKMWMEKFGTILHHNTDQVELVGGHAYPKFGGGVMVSPIYILLSGRATMEILDKEKNEVIKLPVGTTAVKAAKEYLKKVLRNVDVDKDVIIDCRIGQGSMDLVDVFERQKNEVPLANDTSFGVGYAPLSTTERLVLETERFLNSDELKNEIPAVGEDIKVMGLREGKKITLTIAMAVVDRYVKNIEEYKEVIEKVRKKVEDLAKKIADGYEVEIHINTADDYERESVYLTVTGTSAEMGDDGSVGRGNRVNGLITPFRPMSMEAASGKNPVNHVGKIYNILANLIANDIAKLEGVKECYVRILSQIGKPINEPKALDIEIITEDSYDIKDIEPKAKEIANKFLDNIMEVQKMIVEGKVTTF
B7: enzyme (Caenorhabditis elegans, UniProt Q19834); chain MTAEKEPLKSREGDEAPQNETEGKGKGLEKSLTLFNGVSMIVGCIIGSGIFVSPTGVQEQAGSVGLSLIVWLISGIFTAIGAYCYAELGTLIKKSGGDYAYIMEAFGPFVAFIRLWIEAIVVRPCTVTIVALTFAIYGLRPFFPDCAPPDVVAELLAILLIVLMTAINCISVRLATIVQDWFTIAKVVALCLIILTGLGLLFFGESQYKDSFENIFENTSQDFTKVSLAFYSGLFAYSGWNFLNFIVEELQNPKRNLPLAIAISITSCTVIYVLTNVALYTAISPDEMLESPAVAVLFANKLYGKFAFIMPLCVACSTIGSANGVIFTSARLFYSGAREGQMPAVLTMINKKTKTPIPAVILTGALSIAYLLASKDVYQLINYIQISYWLAIGTAIAALFWLRRTMPDASRPIKVPLIWPAIFLAGCIALVLIPMVAAPRDTGIGLLIMLSAVPVYGIFIGWKNKPKWFNEFIDSSTVFIQKLFMVVDEDKED
B8: enzyme (Bacillus pumilus, UniProt A8FFI9); chain EARSIAWSVDEFFKNREGTFVIQEVKEKSPWVYNKKRAKERFAPQSTFKVANALIGLQTGAVRDEYDIKYWDGVKREIDNWNRDHTLGSGMRDSVVWYYQAMARDIGEERMNHWVKAIHYGNKDISGGIDQFWLSSTLRISPIEQVRFLKQLYEETLPFDLKNMRTVKRMMVQEEEKHATLYGKTGSGSDIGWYVGFIKHEHKTYILATNIKGTGIEAKDITYRILKKYHLMEASV
B9: Nudt8 (Mus musculus, UniProt Q9CR24); chain MLPDGLSAEDEQRCRQLLARTTARLRSRPAAAAVLVPLCLVRGVPALLYTLRSSRLVGRHKGEVSFPGGKCDPDDQDVIHTALRETQEELGLEVPKEHVWGVLQPVYDREKATIVPVLANVGPLDLQSLRPNLEEVDEVFEMSLAHLLQTQNQGYTHFCQGGHFSYTLPVFLHGPHRVWGLTAVITELTLKLLAPGFYQPSLAVPELPRG
B10: HCT R356D (Coleus scutellarioides, UniProt E8ZAP2); chain MKIHVRDSTLVRPSAATPAVSLWNSNVDLVVPNFHTPSVYFYRPSGADNFFDTAVMKAALGRALVSFYPMAGRLKRDEDGRVEIDCNAEGVLFVEAESDGTVDDYGDFAPSLELRRLIPAVDYSQGISAYPLLVLQVTFFKCGGVSLGVGMQHHAADGFSGLHFINTWSDMARGLDITLPPFIDRTLLSARDPPQPQFKHVEYQPPPAMKTYEPAETVVSIFKLTKDQLTTLKAKSKEDGNTTTYSSYEMLSGHVWRCTCLARGLPEEQETKLYIATDGRSRLQPQLPPGYFGNVIFTATPLAVAGDLGSKPVWYAASKIHDALARMDNDYLRSALDFLELQPDLKALVRGAHTFDCPNLGITSWVRLPIHDADFGWGRPIFMGPGGIAYEGLSFVLPSPTNDGSLSVAISLQAEHMKLFEKLLYQI
Chain of UniProt P03958 (whole entry, looked up): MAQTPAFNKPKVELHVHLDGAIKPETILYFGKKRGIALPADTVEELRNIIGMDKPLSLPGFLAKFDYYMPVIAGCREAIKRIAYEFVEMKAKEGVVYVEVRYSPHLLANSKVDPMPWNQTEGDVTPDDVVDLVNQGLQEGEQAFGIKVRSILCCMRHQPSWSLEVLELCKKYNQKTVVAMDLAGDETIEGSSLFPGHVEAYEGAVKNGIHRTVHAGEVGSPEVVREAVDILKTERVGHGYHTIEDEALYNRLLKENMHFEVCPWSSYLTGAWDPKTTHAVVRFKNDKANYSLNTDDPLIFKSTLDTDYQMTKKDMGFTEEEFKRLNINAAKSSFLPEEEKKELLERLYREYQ
Chain of UniProt J9VYP5 (whole entry, looked up): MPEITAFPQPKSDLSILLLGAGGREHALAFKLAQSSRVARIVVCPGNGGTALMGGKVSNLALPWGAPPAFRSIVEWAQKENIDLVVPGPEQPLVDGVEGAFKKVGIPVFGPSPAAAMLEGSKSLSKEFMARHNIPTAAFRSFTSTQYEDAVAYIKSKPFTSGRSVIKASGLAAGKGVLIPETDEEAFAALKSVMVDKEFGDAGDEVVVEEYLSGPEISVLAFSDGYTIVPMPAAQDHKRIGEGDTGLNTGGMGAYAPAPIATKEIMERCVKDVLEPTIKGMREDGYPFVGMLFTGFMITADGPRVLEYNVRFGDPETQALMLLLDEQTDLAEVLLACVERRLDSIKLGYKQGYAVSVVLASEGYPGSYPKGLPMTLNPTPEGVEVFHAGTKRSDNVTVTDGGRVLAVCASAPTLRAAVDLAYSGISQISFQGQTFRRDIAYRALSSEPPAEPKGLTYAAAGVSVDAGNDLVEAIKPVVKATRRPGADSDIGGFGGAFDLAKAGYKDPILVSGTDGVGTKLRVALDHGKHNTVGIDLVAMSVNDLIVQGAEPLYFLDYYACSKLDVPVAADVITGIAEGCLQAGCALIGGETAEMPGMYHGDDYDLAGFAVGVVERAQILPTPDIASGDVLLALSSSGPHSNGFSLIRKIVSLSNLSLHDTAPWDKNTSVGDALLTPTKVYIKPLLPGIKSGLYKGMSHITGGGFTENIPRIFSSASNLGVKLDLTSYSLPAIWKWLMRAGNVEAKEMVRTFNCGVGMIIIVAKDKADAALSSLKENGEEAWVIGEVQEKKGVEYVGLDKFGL
Chain of UniProt Q06520 (whole entry, looked up): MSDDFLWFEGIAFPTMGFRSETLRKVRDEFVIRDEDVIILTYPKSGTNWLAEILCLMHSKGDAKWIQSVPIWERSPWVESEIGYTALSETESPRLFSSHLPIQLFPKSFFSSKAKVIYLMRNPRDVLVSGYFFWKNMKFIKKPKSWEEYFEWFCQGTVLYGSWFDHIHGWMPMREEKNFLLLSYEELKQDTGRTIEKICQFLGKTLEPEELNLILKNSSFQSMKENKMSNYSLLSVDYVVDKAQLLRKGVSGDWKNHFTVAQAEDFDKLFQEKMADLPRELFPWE

| Molecule | substrate | test system | conditions | Km [µM] |
| --- | --- | --- | --- | --- |
| Ptb (Listeria monocytogenes, UniProt Q8Y7B7) | CCCCCC(=O)SCCNC(=O)CCNC(=O)[C@H](O)C(C)(C)COP(=O)(O)OP(=O)(O)OC[C@H]1O[C@@H](n2cnc3c(N)ncnc32)[C@H](O)[C@@H]1OP(=O)(O)O | – | pH 7.5, 25 °C, apparent, poor fit | 31.5 |
| B1 (TBM M536C) | NCCc1ccc(O)cc1 | – | pH 6, 35 °C, KCl 0.1 M, apparent Km, apparent, together with: ascorbate 50 mM, CuSO4 15 µM | 4600 |
| Ada (Mus musculus, UniProt P03958) | Nc1ncnc2c1ncn2[C@@H]1O[C@H](CO)C[C@H]1O | mouse erythrocytes | pH 5.8, 37 °C | 350 |
| B2 (lpxA) | CC(=O)N[C@H]1[C@@H](OP(=O)(O)OP(=O)(O)OC[C@H]2O[C@@H](n3ccc(=O)[nH]c3=O)[C@H](O)[C@@H]2O)O[C@H](CO)[C@@H](O)[C@@H]1O | – | pH 8, 25 °C, together with: R-3-hydroxymyristoyl-ACP 40 µM | 600 |
| enzyme (Schistosoma mansoni, UniProt Q962Y6) | NC(=O)CCCCC1CCSS1 | – | pH 7.4, 25 °C | 5000 |
| enzyme (Pseudomonas putida, UniProt F8G0M2) | O=CNC(=O)/C=C\C(=O)O | – | pH 6.7, 25 °C | 940 |
| B3 (enzyme) | NC(=O)CC[C@H](N)C(=O)O | – | pH 9, 70 °C | 5100 |
| B4 (rebH) | c1ccc2c3c([nH]c2c1)CNCC3 | – | together with: glucose dehydrogenase regeneration | 144 |
| B5 (iodotyrosine deiodinase) | N#Cc1cc(C[C@H](N)C(=O)O)cc(I)c1O | – | pH 7.4, 25 °C | 74 |
| B6 (Mj-MAT W387F/Y49W) | CSCC[C@H](N)C(=O)O | – | 55 °C, together with: ATP 2.5 mM, methionine 0.05-1 mM | 660 |
| SULT2A1 (Homo sapiens, UniProt Q06520) | C[C@H](CCCC(CO)CO)[C@H]1CC[C@H]2[C@@H]3[C@H](O)C[C@H]4C[C@H](O)CC[C@]4(C)[C@H]3C[C@H](O)[C@]12C | – | pH 7, 37 °C, substrate inhibition, together with: PAPS 14 µM | 181 |
| B7 (enzyme) | Nc1ccccc1C(=O)C[C@H](N)C(=O)O | – | not purified | 40.1 |
| B8 (enzyme) | C[C@@H](O)[C@H]1C(=O)N2C(C(=O)O)=C(S[C@@H]3CN[C@H](CNS(N)(=O)=O)C3)[C@H](C)[C@H]12 | – | pH 7 | 4.1 |
| alanine aminopeptidase (Neisseria meningitidis, UniProt Q9JYV4) | CC[C@H](N)C(=O)Nc1ccc2c(CC(N)=O)cc(=O)oc2c1 | – | pH 7.5, 37 °C | 162 |
| B9 (Nudt8) | CC(C)(COP(=O)(O)OP(=O)(O)OC[C@H]1O[C@@H](n2cnc3c(N)ncnc32)[C@H](O)[C@@H]1OP(=O)(O)O)[C@@H](O)C(=O)NCCC(=O)NCCSC(=O)CCC(=O)O | – | pH 8.5, together with: 2 mM Mn2+ | 329 |
| B10 (HCT R356D) | NCCc1ccc(O)c(O)c1 | – | pH 8, pseudo-first-order, together with: p-coumaroyl CoA | 49400 |
| ADE5,7 (Cryptococcus neoformans, UniProt J9VYP5) | Nc1ncnc2c1ncn2[C@@H]1O[C@H](COP(=O)(O)OP(=O)(O)OP(=O)(O)O)[C@@H](O)[C@H]1O | – | pH 8, 37 °C, apparent | 48 |
